Results pooled from the literature.
Protocols differ between the studies behind these lines. Values joined by “and” are separate records of one study, mostly repeats; a detail may differ. ± gives the spread as reported.

SMILES	assay	test system	conditions	tissue uptake
COc1cccc(OC)c1-c1cc(C(=O)NC2(C(=O)O)C3CC4CC(C3)CC2C4)nn1-c1ccc(C(=O)NCCNC(=O)[C@H](CCCCNC(=O)[C@H](CC(C)C)NC(=O)C2OC2C(=O)O)NC(=O)CN2CCN(CC(=O)[O-])CCN(CC(=O)[O-])CCN(CC(=O)[O-])CC2)cc1C(C)C.[177Lu+3] (mixture of isomers)	–	mouse, HT-29 xenograft, spleen	72 h post injection	0.49 %ID/g
CN(Cc1ccccc1)C(=O)CN1CCN(CC(=O)[O-])CCN(Cc2cccc(C(=O)[O-])n2)CC1.[177Lu+3]	–	BALB/c mouse, small intestine	intravenous, 1 h	1.82 ± 0.06 %ID/g
O=C(O)CCCOc1ccc([18F])cc1-c1cc(-c2ccccc2C(F)(F)F)n(-c2ccccc2)n1	–	mouse, bone	intravenous, dose not given, 5 min	1.52 ± 0.21 %ID/g
CCCC[C@H](NC(=O)CNC(=O)CNC(=O)[C@H](CCCCNC(=O)[C@H](CCN)NC(=O)C(C)c1ccc(CC(C)C)cc1)NC(=O)CN1CCN(CC(=O)O)CCN(CC(=O)O)CCN(CC(=O)O)CC1)C(=O)N[C@H]1CC(=O)NCCCC[C@@H](C(N)=O)NC(=O)[C@H](Cc2c[nH]c3ccccc23)NC(=O)[C@H](CCCNC(=N)N)NC(=O)[C@@H](Cc2ccccc2)NC(=O)[C@H](Cc2c[nH]cn2)NC1=O (some centres unmarked) [lutetium-177 labelled]	–	C57 mouse, intestines	2 h	2.08 ± 0.77 %ID
N#C[C@@H]1CC(F)(F)CN1C(=O)CNC(=O)c1ccnc2c(NC(=O)[C@H](CCCCNC(=O)CCOCCOCCOCCOCCOCCOCCNC(=O)CN3CCN(CC(=O)[O-])CCN(CC(=O)[O-])CCN(CC(=O)[O-])CC3)NC(=O)CCCc3ccc(I)cc3)cccc12.[177Lu+3]	–	mouse, U-87 MG tumour xenograft, brain	1 h	0.48 ± 0.1 %ID/g
COc1ccc(Nc2nc(Nc3ccc(OCCOCCOCC[18F])cc3)ncc2Br)cc1	–	ICR mouse, S180 sarcoma-bearing, blood	intravenous, 370 kBq in 100 µL, 5 min	6.48 ± 0.92 %ID/g
O=C([O-])CN1CCN(CC(=O)[O-])CCN(CC(=O)NCC2CCC(C(=O)NC(Cc3ccc4ccccc4c3)C(=O)NCCCCC(NC(=O)NC(CCC(=O)O)C(=O)O)C(=O)O)CC2)CCN(CC(=O)[O-])CC1.[68Ga+3] (centres unmarked)	PET/CT	mouse 22Rv1 xenograft, kidney	1 h	24.4 ± 12.3 %ID/g
O=C([O-])CN1CCN(CC(=O)O)CCN(CC(=O)[O-])CCN(CC(=O)NCC2CCC(C(=O)NC(Cc3ccc4ccccc4c3)C(=O)NCCCCC(NC(=O)NC(CCC(=O)O)C(=O)O)C(=O)O)CC2)CC1.[212Pb+2] (centres unmarked)	measured: 212Pb	athymic mouse, C4-2 prostate xenograft, skull	intravenous, dose not given, 2 h	not detected
COc1cccc(OC)c1-c1cc(C(=O)NC2(C(=O)O)C3CC4CC(C3)CC2C4)nn1-c1ccc(C(=O)N(C)CCOCCOCCN(C)C(=O)[C@H](CCCCNC(=O)[C@H](CC(C)C)NC(=O)C2OC2C(=O)O)NC(=O)CN2CCN(CC(=O)[O-])CCN(CC(=O)[O-])CCN(CC(=O)[O-])CC2)cc1C(C)C.[177Lu+3] (mixture of isomers)	–	mouse HT-29 xenograft, large intestine	72 h post injection, biodistribution	0.072 %ID/g
CC(C)Cc1ccc(C(C)C(=O)N[C@@H](CCCCNC(=O)CCOCCOCCOCCOCCOCCOCCNC(=O)CN2CCN(CC(=O)[O-])CCN(CC(=O)[O-])CCN(CC(=O)[O-])CC2)C(=O)Nc2cccc3c(C(=O)NCC(=O)N4CC(F)(F)C[C@H]4C#N)ccnc23)cc1.[177Lu+3] (some centres unmarked)	–	mouse, U-87 MG tumour xenograft, lung	1 h	14.4 ± 1.62 %ID/g
COc1cccc(OC)c1-c1cc(C(=O)NC2(C(=O)O)C3CC4CC(C3)CC2C4)nn1-c1ccc(C(=O)N(C)CCCN(C)C(=O)[C@H](CCCCNC(=O)[C@H](CC(C)C)NC(=O)C2OC2C(=O)O)NC(=O)CN2CCN(CC(=O)[O-])CCN(CC(=O)[O-])CCN(CC(=O)[O-])CC2)cc1C(C)C.[177Lu+3] (mixture of isomers)	–	mouse, HT-29 xenograft, heart	4 h post injection	0.47 %ID/g
CN(Cc1ccccc1)C(=O)CN1CCN(CC(=O)[O-])CCN(CC(=O)[O-])CC1.[44Sc+3]	–	BALB/c mouse, small intestine	intravenous, 1 h	1.54 ± 0.18 %ID/g
COc1cccc(OC)c1-c1cc(C(=O)NC2(C(=O)O)C3CC4CC(C3)CC2C4)nn1-c1ccc(C(=O)N(C)CCCN(C)CCCN(C)C(=O)[C@H](CCCCNC(=O)[C@H](CC(C)C)NC(=O)C2OC2C(=O)O)NC(=O)CN2CCN(CC(=O)[O-])CCN(CC(=O)[O-])CCN(CC(=O)[O-])CC2)cc1C(C)C.[177Lu+3] (mixture of isomers)	–	mouse, HT-29 xenograft, muscle	72 h post injection	0.032 %ID/g
O=C([O-])CN1CCN(CC(=O)[O-])CCN(CC(=O)[O-])CC1.[44Sc+3]	–	BALB/c mouse, small intestine	intravenous, 1 h	0.17 ± 0.08 %ID/g
COc1ccc2c(c1)C(C)(C)C(/C=C/C1=C(Oc3ccc(C(=O)NCCCCOc4cc(CN(Cc5ccccn5)Cc5ccccn5)cc(CN(Cc5ccccn5)Cc5ccccn5)c4)cc3)C(=C/C=C3/N(CCCCS(=O)(=O)[O-])c4ccc(OC)cc4C3(C)C)CCC1)=[N+]2CCCCS(=O)(=O)[O-].O=[N+]([O-])[O-].O=[N+]([O-])[O-].[99Tc+].[C-]#[O+].[C-]#[O+].[C-]#[O+].[Zn+2]	–	BALB/c mouse, Staphylococcus aureus myositis, blood	12 h	0.63 %ID/g and 0.96 %ID/g and 1.4 %ID/g and 2.05 %ID/g
Cc1n[nH]c(C)c1CCCOc1cc(C(=O)NCCCCC(NC(=O)CN2CCN(CC(=O)[O-])CCN(CC(=O)[O-])CCN(CC(=O)[O-])CC2)C(=O)NCC2CCC(C(=O)NC(Cc3ccc4ccccc4c3)C(=O)NCCCCC(NC(=O)NC(CCC(=O)O)C(=O)O)C(=O)O)CC2)ccc1F.[68Ga+3] (centres unmarked)	–	mouse 22Rv1 xenograft, kidney	4 h	6.07 ± 0.46 %ID/g
CN(Cc1ccccc1)C(=O)CN1CCN(CC(=O)[O-])CCN(CC(=O)N(C)Cc2ccccc2)CC1.[18F-].[Sc+3]	–	BALB/c mouse, large intestine	intravenous, 1 h	0.3 ± 0.02 %ID/g
COc1ccc(Nc2nc(Nc3ccc(OCCOCC[18F])cc3)ncc2Br)cc1	–	ICR mouse, S180 sarcoma-bearing, blood	intravenous, 370 kBq in 100 µL, 120 min	2.31 ± 0.18 %ID/g
O=C([O-])CN1CCN(CC(=O)[O-])CCN(Cc2cccc(C(=O)[O-])n2)CC1.[44Sc+3]	–	BALB/c mouse, large intestine	intravenous, 1 h	0.2 ± 0.05 %ID/g
N#C[C@@H]1CC(F)(F)CN1C(=O)CNC(=O)c1ccnc2c(NC(=O)CCOCCOCCOCCOCCOCCOCCNC(=O)[C@H](CCCCNC(=O)CN3CCN(CC(=O)[O-])CCN(CC(=O)[O-])CCN(CC(=O)[O-])CC3)NC(=O)CCCc3ccc(I)cc3)cccc12.[177Lu+3]	–	mouse, U-87 MG tumour xenograft, kidneys	24 h	0.55 ± 0.18 %ID/g
CC[C@H](C)[C@H](NC(=O)C[C@H](NC(=O)CN1CCN2CCN(CC1)CC(=O)[O][Al]([18F])[O]C(=O)C2)C(=O)O)C(=O)N[C@H]1CCc2cccc3c2N(C1=O)[C@H](C(=O)NCc1cn[nH]n1)C3	–	C57BL/6J mouse, MC-38 tumour, blood	30 min post injection, PBS treated	1.69 ± 0.25 %ID/g
CCCC[C@H](NC(=O)CNC(=O)CNC(=O)[C@H](CCCCNC(=O)[C@H](CC(=O)O)NC(=O)C(C)c1ccc(CC(C)C)cc1)NC(=O)CN1CCN(CC(=O)O)CCN(CC(=O)O)CCN(CC(=O)O)CC1)C(=O)N[C@H]1CC(=O)NCCCC[C@@H](C(N)=O)NC(=O)[C@H](Cc2c[nH]c3ccccc23)NC(=O)[C@H](CCCNC(=N)N)NC(=O)[C@@H](Cc2ccccc2)NC(=O)[C@H](Cc2c[nH]cn2)NC1=O (some centres unmarked) [lutetium-177 labelled]	–	C57 mouse, spleen	intravenous, 2 h, together with: 10 µg NDP-MSH co-injection	0.4 ± 0.22 %ID/g
[11CH3]N1CCC(NC(=O)c2cc(-c3c(O)cc(O)cc3Oc3ccc([N+](=O)[O-])cc3)on2)CC1	–	NMRI mouse, healthy, kidneys	intravenous, 5.5 MBq, 60 min	2.1 ± 0.4 %ID
